Measured values pooled from the literature.
Parts stem from different laboratories: compare values within a part only. Changes are numbered by the printed parent chain.
Sequence of UniProt Q9Y5N1 (whole entry, looked up): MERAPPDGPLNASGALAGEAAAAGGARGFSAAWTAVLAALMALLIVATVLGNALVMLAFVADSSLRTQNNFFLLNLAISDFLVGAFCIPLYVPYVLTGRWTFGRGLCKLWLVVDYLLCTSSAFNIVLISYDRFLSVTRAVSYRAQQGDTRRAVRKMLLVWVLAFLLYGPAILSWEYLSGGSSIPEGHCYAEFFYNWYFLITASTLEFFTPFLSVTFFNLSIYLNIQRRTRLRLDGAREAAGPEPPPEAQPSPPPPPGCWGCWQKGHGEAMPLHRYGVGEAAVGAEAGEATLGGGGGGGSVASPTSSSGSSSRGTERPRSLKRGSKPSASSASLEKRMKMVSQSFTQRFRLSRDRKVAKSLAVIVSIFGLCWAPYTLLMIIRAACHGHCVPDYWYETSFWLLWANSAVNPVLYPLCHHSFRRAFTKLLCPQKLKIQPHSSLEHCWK
Sequence of UniProt P21917 (whole entry, looked up): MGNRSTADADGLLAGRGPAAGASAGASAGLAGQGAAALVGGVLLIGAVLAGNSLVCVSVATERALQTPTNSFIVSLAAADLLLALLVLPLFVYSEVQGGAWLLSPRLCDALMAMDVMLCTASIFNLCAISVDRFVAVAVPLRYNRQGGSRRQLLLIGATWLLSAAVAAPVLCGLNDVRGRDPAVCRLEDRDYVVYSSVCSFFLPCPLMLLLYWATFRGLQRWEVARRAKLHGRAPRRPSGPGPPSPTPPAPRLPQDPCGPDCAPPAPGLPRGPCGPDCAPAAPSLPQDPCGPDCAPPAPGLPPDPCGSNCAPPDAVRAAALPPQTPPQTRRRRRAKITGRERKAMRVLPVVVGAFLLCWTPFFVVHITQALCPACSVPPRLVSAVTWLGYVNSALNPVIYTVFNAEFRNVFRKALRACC
Sequence of UniProt P13945 (whole entry, looked up): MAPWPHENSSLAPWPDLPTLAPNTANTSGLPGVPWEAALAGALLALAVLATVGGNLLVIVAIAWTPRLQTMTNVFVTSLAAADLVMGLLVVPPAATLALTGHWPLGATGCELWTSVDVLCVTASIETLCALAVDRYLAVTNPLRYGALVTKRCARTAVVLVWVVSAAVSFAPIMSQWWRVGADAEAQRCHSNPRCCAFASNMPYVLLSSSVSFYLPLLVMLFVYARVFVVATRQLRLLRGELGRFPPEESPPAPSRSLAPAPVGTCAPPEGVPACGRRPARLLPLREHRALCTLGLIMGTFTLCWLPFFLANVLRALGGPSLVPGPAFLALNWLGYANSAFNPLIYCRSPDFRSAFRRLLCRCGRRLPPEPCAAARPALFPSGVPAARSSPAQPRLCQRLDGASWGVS
Sequence of UniProt P08173 (whole entry, looked up): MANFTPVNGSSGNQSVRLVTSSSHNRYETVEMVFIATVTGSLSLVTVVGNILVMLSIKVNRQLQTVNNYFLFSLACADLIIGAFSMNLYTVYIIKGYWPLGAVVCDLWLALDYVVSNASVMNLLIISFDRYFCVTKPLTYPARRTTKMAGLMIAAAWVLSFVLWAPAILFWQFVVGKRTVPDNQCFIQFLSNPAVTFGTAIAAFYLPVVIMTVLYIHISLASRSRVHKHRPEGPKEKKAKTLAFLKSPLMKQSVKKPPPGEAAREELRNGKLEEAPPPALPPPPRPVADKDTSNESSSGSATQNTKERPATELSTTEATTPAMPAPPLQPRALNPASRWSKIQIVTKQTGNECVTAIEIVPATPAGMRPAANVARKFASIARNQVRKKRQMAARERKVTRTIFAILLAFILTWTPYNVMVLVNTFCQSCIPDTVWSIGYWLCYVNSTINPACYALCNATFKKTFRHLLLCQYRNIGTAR

Study 1
Target: Phosphate system positive regulatory protein PHO4, full length, GST-tagged (PHO4, Saccharomyces cerevisiae, UniProt P07270, residues 1-312)
Technique: competition protein-binding microarray
Molecule type: double-stranded DNA, one strand shown
Matrix: in vitro
Concentration: 2 µM
Notes: whole 60-bp probe, lowest competitor level
With: Cbf1 competitor, 0.05 µM
Reading: higher = stronger binding
Endpoint: fluorescence intensity
Construct (chain): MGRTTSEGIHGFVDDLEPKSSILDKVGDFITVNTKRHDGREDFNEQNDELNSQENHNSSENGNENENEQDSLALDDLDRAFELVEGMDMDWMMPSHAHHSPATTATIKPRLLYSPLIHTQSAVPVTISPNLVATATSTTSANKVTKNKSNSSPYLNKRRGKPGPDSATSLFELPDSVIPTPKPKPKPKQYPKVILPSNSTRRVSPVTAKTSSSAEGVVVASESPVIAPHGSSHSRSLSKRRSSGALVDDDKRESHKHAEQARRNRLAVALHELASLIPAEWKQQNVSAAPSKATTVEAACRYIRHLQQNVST
TTCTGAATATGCGGCCACGTGTGGAATGATGTCCTGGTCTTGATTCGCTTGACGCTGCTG: 14800 a.u.
CTTTCTGCCAAATTGAACGTGTCGGTCAAGCAATCCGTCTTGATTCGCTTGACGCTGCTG: 9400 a.u.
AATTTCTTCAGGACTTGCAAAAAGAATCTAACTGATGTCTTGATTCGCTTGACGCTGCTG: 2830 a.u.
ATTTTTTTAAAGAATCGTGTGGTAAACAAGCTTCCAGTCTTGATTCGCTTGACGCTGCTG: 5910 a.u.
CATACCCAACCTTGTACGGTGGGTGAAGATATTTGTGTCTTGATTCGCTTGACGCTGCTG: 3870 a.u.
CATACCCAACCTTGTCACCATACTTAAGATATTTGTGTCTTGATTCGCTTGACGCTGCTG: 4410 a.u.
CACTATCCATCCTGGCACGTGTTCCTGGCCACCTTGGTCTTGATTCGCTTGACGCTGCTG: 19400 a.u.
TCTTTACCTTTGTTCCACGTGTCGGTCCGTACAATTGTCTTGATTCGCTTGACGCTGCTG: 16800 a.u.

Study 2
Target: CCND3, cyclin fold, Cln2 fusion (human)
Technique: yeast growth competition, sequencing
Matrix: yeast
Notes: weak parent motif
Reference: not given
Reading: higher = stronger binding
Endpoint: normalised enrichment score
Starting sequence: BRCA2 docking peptide (human); PSIKRNLLNEFDR; partner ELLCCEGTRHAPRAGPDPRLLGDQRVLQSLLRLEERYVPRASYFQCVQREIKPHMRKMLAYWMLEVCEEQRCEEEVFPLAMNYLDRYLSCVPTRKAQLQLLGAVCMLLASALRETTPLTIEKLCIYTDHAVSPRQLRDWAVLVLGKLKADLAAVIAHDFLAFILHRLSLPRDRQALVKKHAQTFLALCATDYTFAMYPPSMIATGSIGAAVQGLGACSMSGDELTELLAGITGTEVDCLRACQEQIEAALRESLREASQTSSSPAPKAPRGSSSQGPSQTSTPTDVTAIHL
R5G: 0.0728
L7Y: 0.0881
I3D: -0.0605
L7I: 0.281
S2F: 0.0934
R13E: 0.108
E10G: 0.0653
F11T: 0.091

Study 3
Target: Serine/threonine-protein kinase NLK (NLK, Homo sapiens, UniProt Q9UBE8)
Sequence of UniProt Q9UBE8 (whole entry, looked up): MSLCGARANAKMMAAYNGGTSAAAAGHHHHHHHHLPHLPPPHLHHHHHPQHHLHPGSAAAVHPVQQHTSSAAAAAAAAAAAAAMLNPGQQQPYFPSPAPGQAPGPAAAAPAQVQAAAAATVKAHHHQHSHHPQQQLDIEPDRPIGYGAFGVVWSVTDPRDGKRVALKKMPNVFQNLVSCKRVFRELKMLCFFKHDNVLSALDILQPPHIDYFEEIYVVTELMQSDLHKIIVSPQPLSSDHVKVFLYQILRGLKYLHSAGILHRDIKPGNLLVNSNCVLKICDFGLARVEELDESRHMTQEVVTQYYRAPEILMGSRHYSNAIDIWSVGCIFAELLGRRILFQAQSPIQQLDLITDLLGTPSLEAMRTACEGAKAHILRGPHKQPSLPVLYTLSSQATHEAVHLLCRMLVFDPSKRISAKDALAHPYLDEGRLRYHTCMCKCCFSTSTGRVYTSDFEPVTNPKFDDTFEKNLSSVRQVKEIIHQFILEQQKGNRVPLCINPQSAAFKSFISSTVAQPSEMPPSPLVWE
Effect on: enzyme activity
Mode: inhibitor
Concentration: 0.5 µM
Reference: control
Endpoint: remaining activity
COc1ccc(CNC(=O)Nc2ncc([N+](=O)[O-])s2)cc1: 102%
O=C1NC(=O)C(c2cn(CCCn3ccnc3)c3ccccc23)=C1Nc1ccccc1: 97%
CC(C)[C@H](CO)Nc1nc(Nc2cc(N)cc(Cl)c2)c2ncn(C(C)C)c2n1: 93.9%
CO[C@H]1C[C@@H]2CC[C@@H](C)[C@@](O)(O2)C(=O)C(=O)N2CCCC[C@H]2C(=O)O[C@H]([C@H](C)C[C@@H]2CC[C@@H](O)[C@H](OC)C2)CC(=O)[C@H](C)/C=C(\C)[C@@H](O)[C@@H](OC)C(=O)[C@H](C)C[C@H](C)/C=C/C=C/C=C/1C: 97.3%
O=c1c2ccccc2[nH]c(=S)n1CCN1CCC(=C(c2ccc(F)cc2)c2ccc(F)cc2)CC1: 99.5%
O=C(O)c1ccc2c3c1cccc3c(=O)n1c3ccccc3nc21: 96.1%
CNC(=O)c1cc(Oc2ccc(NC(=O)Nc3ccc(Cl)c(C(F)(F)F)c3)cc2)ccn1: 99.1%
COc1cc2ncnc(Nc3ccc(F)c(Cl)c3)c2cc1OCCCN1CCOCC1: 91.1%
OCC(O)CCON=C1C(c2c(O)[nH]c3ccccc23)=Nc2ccccc21 (stereo not shown): 101%
O=C1NC(=O)C(c2cn(CCCO)c3ncccc23)=C1c1cnccn1: 91.2%
Nc1ccc2ncnc(NCCc3ccc(Oc4ccccc4)cc3)c2c1: 104%
COc1ccc(C(=O)Nc2sc3c(c2C(N)=O)CCCC3)cc1OC: 93.7%
C#Cc1cccc(Nc2ncnc3cc(OCCOC)c(OCCOC)cc23)c1: 103%
Cc1nc(-c2ccccc2)c(-c2ccncc2)o1: 79.4%
COc1cc2nccc(Oc3ccc(NC(=S)NC(=O)c4ccccc4C)cc3)c2cc1OC: 100%
CN(C)c1ccc(C=C2C(=O)Nc3ccccc32)cc1: 102%

Study 4
SMILES: O=C(c1ccc(F)cc1)N1CC(COc2ccc(Br)cc2)(C(=O)O)C1
Effect on: cell-free assay
Concentration: 10 µM
Endpoint: inhibition
CHRM4 (Homo sapiens, UniProt P08173): -16%
ADRB3 (Homo sapiens, UniProt P13945): -13.3%
HRH3 (Homo sapiens, UniProt Q9Y5N1): -20%
SIGMAR1 (Homo sapiens, UniProt Q99720): 20.3%
DRD4 (Homo sapiens, UniProt P21917): -7.87%
